Results of several laboratories.
“And” joins repeats or separate records; there may be more than shown. ± marks the error that the study gave.

SMILES	organism	test	system	conditions	how to read	quantity	value
CC1(C)C(C=C(Cl)Cl)C1C(=O)OCc1ccc(F)cc1 (centres unmarked)	Anopheles funestus	tile contact bioassay	FANG, susceptible, female adults	30 min exposure, 24 h mortality		LC50	1.42 mg/m²
COc1ccc(CNc2nc(N3CCC[C@H]3CO)ncc2C(=O)NN)cc1Cl	Salmonella typhimurium		TA1535	1000 µg/plate, 48 h, together with: rat liver S9		revertant count	57 ± 2
CCC(=O)N(C)c1ccc(Cl)c(Cl)c1	Salmonella typhimurium	Ames test	TA1535	0.10 mg/plate, with rat liver S9		revertant colonies	18 ± 6.4 revertants/plate
CC(=O)OCCn1c2ccc([N+](=O)[O-])cc2c(=O)n1Cc1ccccc1	Leishmania amazonensis		mouse peritoneal macrophages	intracellular amastigotes	reference: CC50 macrophages over IC50 amastigotes	selectivity index	875
NCC(=O)N[C@@H](Cc1ccc(O)cc1)C(=O)N[C@@H](Cc1ccccc1)C(=O)N[C@@H](CC(=O)O)C(=O)O	Aplysia californica		ganglion homogenate	50 µM, pH 7.4, 37 °C		half-life	8.7 min
CC[C@H](C)[C@H](NC(=O)[C@H](CCCNC(=N)N)NC(=O)[C@@H](NC(=O)[C@H](C)NC(=O)[C@@H](NC(=O)[C@@H](NC(=O)[C@H](CC(C)C)NC(=O)[C@H](CCCNC(=N)N)NC(=O)[C@@H](N)C(C)C)[C@@H](C)CC)C(C)C)C(C)C)C(=O)N[C@@H](Cc1c[nH]c2ccccc12)C(=O)N[C@@H](CCCNC(=N)N)C(=O)N[C@@H](CCCNC(=N)N)C(N)=O	Galleria mellonella			concentration not given, 24 h, uninfected larvae, toxicity		survival	90 ± 14%
CC1(C)C(C=C(Cl)Cl)C1C(=O)OCc1ccccc1 (centres unmarked)	Anopheles funestus	tile contact bioassay	FUMOZ-R, resistant, female adults	30 min exposure, 24 h mortality		LC50	4.47 mg/m²
CC[C@H](C)[C@H](NC(=O)[C@H](CCCCN)NC(=O)[C@H](C)NC(=O)[C@H](CC(C)C)NC(=O)[C@H](C)NC(=O)[C@H](CO)NC(=O)[C@H](CC(C)C)NC(=O)[C@H](CC(C)C)NC(=O)[C@H](CCCCN)NC(=O)[C@@H]1CCCN1C(=O)[C@H](CC(C)C)NC(=O)[C@H](Cc1ccccc1)NC(=O)[C@H](CCCCN)NC(=O)[C@H](CCCCN)NC(=O)[C@H](CCCCN)NC(=O)[C@H](CCCCN)NC(=O)[C@H](CCCCN)NC(=O)[C@@H](N)CCCCN)C(=O)N[C@@H](CC(C)C)C(N)=O	Galleria mellonella			concentration not given, uninfected larvae, per concentration doubling		mortality increase	40% and 20%
CC[C@H](C)[C@H](NC(=O)[C@@H](CCCNC(=N)N)NC(=O)[C@H](CCCNC(=N)N)NC(=O)[C@H](Cc1ccccc1)NC(=O)[C@H](Cc1c[nH]c2ccccc12)NC(=O)[C@H](CCCNC(=N)N)NC(=O)[C@@H]1CCCN1C(=O)[C@H](CCCNC(=N)N)NC(=O)[C@@H]1CCCN1C(=O)[C@H](CC(C)C)NC(=O)[C@H](Cc1ccc(O)cc1)NC(=O)[C@@H]1CCCN1C(=O)[C@@H]1CCCN1C(=O)[C@H](CCCCN)NC(=O)[C@H](CC(=O)O)NC(=O)[C@@H](N)C(C)C)C(=O)N[C@@H](Cc1ccc(O)cc1)C(=O)N[C@@H](CC(N)=O)C(=O)N[C@H](CCCNC(=N)N)C(N)=O	Escherichia coli	LC-MS	BW25113	8 µg/mL, 30 min		cellular peptide amount	626 ng
NCCn1c2ccc([N+](=O)[O-])cc2c(=O)n1Cc1ccccc1	Leishmania amazonensis		mouse peritoneal macrophages	intracellular amastigotes	reference: CC50 macrophages over IC50 amastigotes	selectivity index	16
CC1(C)C(C=C(Cl)Cl)C1C(=O)OCc1c(F)c(F)c(F)c(F)c1F (centres unmarked)	Anopheles funestus	tile contact bioassay	FANG, susceptible, female adults	30 min exposure, 24 h mortality		LC50	0.0237 mg/m²
C[C@@H](O)[C@H](NC(=O)[C@@H]1CCCN1C(=O)[C@H](Cc1ccc(O)cc1)NC(=O)CNC(=O)[C@H](CCCNC(=N)N)NC(=O)CNC(=O)[C@H](CO)NC(=O)[C@H](Cc1c[nH]cn1)NC(=O)OCC1c2ccccc2-c2ccccc21)C(=O)N[C@@H](CO)C(=O)N1CCC[C@H]1C(=O)N[C@@H](Cc1c[nH]c2ccccc12)C(=O)N[C@@H](CO)C(=O)O	Escherichia coli	bacterial growth, OD600	BL21, LB medium	6 h		CC50	> 200 µg/mL
CC(=NNC(=N)N)c1nnn(-c2ccc(C#CC3(O)CCCCC3)cc2)c1C	Escherichia coli		Caco-2, JW55031 tolC mutant		reference: Caco-2 IC50 over MIC	selectivity index	0.69
CC1(C)C(C=C(Cl)Cl)C1C(=O)OCc1c(F)ccc(F)c1F (centres unmarked)	Anopheles funestus	tile contact bioassay	FUMOZ-R, resistant, female adults	30 min exposure, 24 h mortality		LC50	0.285 mg/m²
O=c1c2cc([N+](=O)[O-])ccc2n(CCN2CCCC2)n1Cc1ccccc1	Leishmania amazonensis		mouse peritoneal macrophages	intracellular amastigotes	reference: CC50 macrophages over IC50 amastigotes	selectivity index	27
COc1ccc(CNc2nc(N3CCC[C@H]3CO)ncc2C(=O)NNC(=O)c2cnc(N3CCC[C@H]3CO)nc2NCc2ccc(OC)c(Cl)c2)cc1Cl	Salmonella typhimurium		TA102	62.5 µg/plate		revertant count	274 ± 6
NCCCn1c2ccc([N+](=O)[O-])cc2c(=O)n1Cc1ccccc1	Leishmania amazonensis		promastigotes, MHOM/BR/77/LTB0016		reference: CC50 macrophages over IC50 promastigotes	selectivity index	90
CC(=O)Oc1ccc(Cn2nc(C)c(=O)[nH]c2=O)cc1C1OC(c2cccc(Cl)c2)=NN1C(C)=O (centres unmarked)	Leishmania donovani		RAW264.7	intramacrophage amastigotes	reference: CC50 over IC50	selectivity index	2.4
COC(=O)Cn1c2ccc([N+](=O)[O-])cc2c(=O)n1Cc1ccccc1	Leishmania amazonensis		mouse peritoneal macrophages	intracellular amastigotes	reference: CC50 macrophages over IC50 amastigotes	selectivity index	< 17
CCCCNCC(O)Cn1c2ccc(Cl)cc2c2cc(Cl)ccc21 (centres unmarked)	Schistosoma japonicum			5 µg/mL, adult worms		mortality	100%
